Assay results collected from several papers.
Numbered parts are unrelated; each lists some results of a single study. Positions count from the first letter of the parent shown.

Study 1 — target: CCNA2, cyclin fold, Cln2 fusion (human); method: yeast growth competition, sequencing; medium: yeast; notes: strong parent motif; reference: not given; direction: higher = stronger binding
Starting sequence: CDC6 docking peptide (human); TLKGRRLVFDNQL
| Change | normalised enrichment score |
| --- | --- |
| TLKGRRLRFDNQL [V8R] | 2.14 |
| TLKGRRLVWDNQL [F9W] | 1.59 |
| TGKGRRLVFDNQL [L2G] | 2.61 |
| TLKNRRLVFDNQL [G4N] | 1.2 |
| TLKGRRLVFDLQL [N11L] | 2.09 |
| TLKGRRLVFDNEL [Q12E] | 3.36 |
| TLKGRRFVFDNQL [L7F] | 0.618 |
| TLKGRRLVFVNQL [D10V] | 1.25 |
| TLRGRRLVFDNQL [K3R] | 2.93 |
| TLKGRRLVFDNQK [L13K] | 2.24 |
| TLKGRRLVNDNQL [F9N] | 0.675 |
| TLKGRSLVFDNQL [R6S] | 0.414 |
| TLKVRRLVFDNQL [G4V] | 1.78 |

Study 2 — method: protein binding microarray; molecule type: double-stranded DNA, one strand shown; medium: in vitro; concentration: not given; reference: not given; direction: higher = stronger binding
Target: Histone acetyltransferase KAT6A, winged helix 2, GST fusion (KAT6A, Homo sapiens, UniProt Q92794, residues 85-181)
Notes: 8-mer, flanks averaged, mean of 2 arrays, mostly near background
Target sequence (chain): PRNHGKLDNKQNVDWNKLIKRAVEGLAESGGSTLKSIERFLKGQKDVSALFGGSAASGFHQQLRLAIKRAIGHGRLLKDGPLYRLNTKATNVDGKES
| Strand | E-score |
| --- | --- |
| ATTCTGTA | -0.0436 |
| CAATACGG | -0.113 |
| TATCTCCA | 0.127 |
| ACACAATG | -0.0605 |
| AACTTCTT | -0.076 |
| CTAGGAAA | -0.0347 |
| GATTATAA | -0.0166 |
| AAGCAACC | 0.125 |
| CGCCGAAG | 0.207 |
| AGCTAGTG | -0.0201 |
| CGGCTGAC | 0.0604 |
| CCTCAACG | -0.0784 |
| AACACTTC | -0.063 |

Study 3 — method: protein-binding microarray; molecule type: double-stranded DNA, one strand shown; medium: in vitro; concentration: 2540 nM top; notes: 60-bp whole probe; added: salmon DNA 0.4 mg/ml; reference: random background probes; direction: higher = stronger binding; constant ends, left off below: GCCTAGCAC … GTCTTGATTCGCTTGACGCTGCTG
Target: Interferon regulatory factor 3, full length, phosphomimetic (IRF3, Homo sapiens, UniProt Q14653, residues 1-427, S386D/S396D/S398D/S402D/T404D/S405D)
Construct (chain): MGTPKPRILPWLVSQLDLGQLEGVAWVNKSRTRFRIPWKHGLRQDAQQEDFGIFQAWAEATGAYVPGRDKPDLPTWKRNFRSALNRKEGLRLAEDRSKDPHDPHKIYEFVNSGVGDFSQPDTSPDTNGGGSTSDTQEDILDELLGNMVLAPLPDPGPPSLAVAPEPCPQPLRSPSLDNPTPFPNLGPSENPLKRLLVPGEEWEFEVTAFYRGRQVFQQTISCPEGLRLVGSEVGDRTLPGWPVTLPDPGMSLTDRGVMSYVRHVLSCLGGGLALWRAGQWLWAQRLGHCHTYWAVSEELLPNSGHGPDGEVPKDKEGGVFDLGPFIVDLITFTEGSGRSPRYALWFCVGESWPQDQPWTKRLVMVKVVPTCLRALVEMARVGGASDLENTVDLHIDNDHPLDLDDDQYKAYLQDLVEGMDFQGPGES
| Strand | fitted relative affinity [z-score] |
| --- | --- |
| TTAGATATCGGGTTTCGATAAGTGCTA | 1.67 |
| TCAGAATTAGGTTTCACACTGTGCTAG | 2.39 |
| GGCGGTATCGACTATCGGGACGTGCTA | 0.55 |
| GACGGACTGTTTTTCCTGACGTGCTAG | 0.492 |
| TTAGGTATCGGGCATCGGTTAGTGCTA | -0.0887 |
| GACGGACTGGGACTGGGGAGGTGCTAG | -0.906 |
| GACGTTTTCGGGTTTCGGGACGTGCTA | 3.41 |
| TCAATTCTCATTTCCAAACTGTGCTAG | 2.94 |
| TTAGATCTCGGTCTCGATTAGTGCTAG | 0.537 |
| GACGGTTCCCTTTTCCTGAAGTGCTAG | 6.44 |
| TTAGAACTGAATTTCGATTAGTGCTAG | 0.784 |

Study 4 — target: UBE2Q1 UBC core domain (UniProt Q7Z7E8); method: yeast two-hybrid; medium: yeast; notes: mostly zero background; reference: not given; direction: higher = stronger interaction
B1: RNF19A RING domain (UniProt Q9NV58); chain ISKQIGDFIECPLCLLRHSKDRFPDIMTCHHRSCVDCLRQYLRIEISESRVNISCPECTERFNPHDIR
B2: ZMIZ2 RING domain (UniProt Q8NF64); chain GTIPGTPGPNGEDGVEQTAIKVSLKCPITFRRIQLPARGHDCRHIQCFDLESYLQLNCERGTWRCPVCNKTALLEGLEVDQYMLGILIYIQNSDYEEITIDPTCSWK
B3: SH3RF1 RING domain (UniProt Q7Z6J0); chain DESALLDLLECPVCLERLDASAKVLPCQHTFCKRCLLGIVGSRNELRCPECRTLVGSGVEEL
B4: RNF121 RING domain (UniProt Q9H920); chain MPTKHLSDSVCAVCGQQIFVDVSEEGIIENTYRLSCNHVFHEFCIRGWCIVGKKQTCPYCKEKVDLKRMFS
Residues (chain): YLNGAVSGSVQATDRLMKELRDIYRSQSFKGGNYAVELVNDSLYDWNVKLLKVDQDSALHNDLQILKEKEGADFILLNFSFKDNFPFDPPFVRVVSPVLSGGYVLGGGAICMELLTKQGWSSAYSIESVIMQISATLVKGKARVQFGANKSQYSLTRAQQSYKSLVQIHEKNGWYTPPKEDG
| Sequence | lacZ reporter activity |
| --- | --- |
| GSDDEEIPFKCFICRQSFQNPVVTKCRHYFCESCALQHFRTTPRCYVCDQQTNGVFNPA (RNF113A RING domain (UniProt O15541)) | 0 |
| B1 (RNF19A RING domain) | 0 |
| AVPSGLEENLCKICMDSPIDCVLLECGHMVTCTKCGKRMNECPICRQYVIRAVHVF (RFFL RING domain (UniProt Q8WZ73)) | 0 |
| B2 (ZMIZ2 RING domain) | 0 |
| B3 (SH3RF1 RING domain) | 0 |
| GSRLQEINDVCAICYHEFTTSARITPCNHYFHALCLRKWLYIQDTCPMCHQKVYIEDDIK (RNF139 RING domain (UniProt Q8WU17)) | 0 |
| B4 (RNF121 RING domain) | 0 |

Some of these lines once more (study 2):
| Strand | E-score |
| --- | --- |
| ACACAATG | -0.0605 |
| ATTCTGTA | -0.0436 |
| AAGCAACC | 0.125 |
| AACACTTC | -0.063 |
| CTAGGAAA | -0.0347 |
| CCTCAACG | -0.0784 |
| TATCTCCA | 0.127 |
